# Measurements of several laboratories.
# Numbered parts are unrelated; each lists some results of a single study.

# Series 1
# Target: RNA binding protein fox-1 homolog 2, RRM domain, GST-SBP tag (RBFOX2, Homo sapiens, UniProt O43251-10, residues 100-194)
# Technique: RNA Bind-n-Seq
# Form: RNA
# Sample: in vitro
# Tested at: 365 nM
# Setting: natural RNA segment, single round, ends assumed
# Relative to: no-protein control
# Reading: higher = stronger binding
# Constant ends, left off below: GGGAGUUCUACAGUCCGACGAUC … UGGAAUUCUCGGGUGCCAA
# Construct (chain): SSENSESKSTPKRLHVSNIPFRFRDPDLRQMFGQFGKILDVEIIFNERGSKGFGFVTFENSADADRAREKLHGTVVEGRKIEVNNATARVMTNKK
Oligonucleotide,RBNS enrichment (R)
GAACAGAACACUUCUAGGACUGGGGGUCUUUUAGCUCCAUAAGCAAGUGAGCAGAUGGGACAAGUUAGUCUUUUCUCCCUAGAAACAAAGGGGAUGCCCAGUGGUUUCCC,0.253
CCCAAAAAGCUCCUAUUAAUUUGCUUAUCCCCCUCAUGUAGCUAGUUGAAUGUGAAUAAAUAACAUGAAAAAAAGGCCACUUUUGUCUUUGUUUUUCCAGGUUAAUGGGA,1.05
UUGCAAAGGCACAAUAAAAUUGCAUCUUCUAGAUUAUAGGCAAUAAAGAUAACAAUAAACCUUAUUUAACAAAUCAGACUGAUACUCUCUGCUUAUUUGAUUUGGUGGGG,0.524
AUUGGUGAGAUGUUUUCCGCUACAGUUAACAUGACAAAUGUCUCAGUGGCAAAAAUCCCCUUUUUGUAAGCCCCCAUAGUCUAGAGGCAGUUUUCUUUUUAAGAAUCAUG,0.252
UGAGCCAAGAUCGUGCCACUGCACUCCAGCCUGAGUGACAGAGCAAGACUCCGUCAAAAAAAAAAAAAAAAAAAAAGAAAUGAUAUCUGGCCCCCCCUUAACACUGGAGC,1
UCCAAGCUAUCAUGCUUAAGCUAUGUCAACAGCAUUUAUUUGUACUAAUGCUAAUAUUUCCAUCAAAAUUUGCCUGUGGAAUAUAUACAGUUCUUAAUUUUAAACUGUCA,1.19
CAGGUGAUAGCUGGUCUCCUGCCUCCACCUCCUGAGUGCUGGGGUUACAGGUGAUCGCUGGUCUCCUGCCUCCACCUCCUGAGUGCUGGGGUUACAGGUGAUCGCUGGUC,0.22
CCUUUUUCUUCUCUCUUCCUUUUAUUUUUUUCUGAAUCCUUUUAUUUUGUGUUAACAGAAAUUCAUAUUUGGUGUGGCUUAAUGUAUUUUGGAAGGUCAUCAGAUUGUGA,0.643
CAUACCUGCCUCAGCCUGACAGGAGUAGGUUUUCCGCAACCCACUGUGCUGAGACAGUUGAUGUGAUGCAAACUAUUCUUGGAGUGUGUUGUUUUCUUUGGCCCAAGGGU,0.42
ACCCAGCUUGUGCCAUUGGGCAUUGAUGGCAUUGAACUAGAGCGAGUGCCUGCCUCGGCUGUGGCACUUCCAGGUUCGACUGAAUCAAGCAUCUGAAGACUGGGUUUUUU,0.995
UGCGCCCCUUCUGAGUAGUCUUUGACAAUGUGUUGUGUUCCCCGAUGUCGACUUGAUUUCCUUUUAGUAGCAUCUCUCUCUUCCAUGUCUUGAUGUUAUGCAGGAAGUAC,1.03
GUGUUACAAGAAAAGGCUGGAAGCAUUUCUACUAAGCGAGGCCCUUUACAGUGACCUCCAGGCAACUGAAGUCAAGAAUCAGGACUCGGGCUUGCUGCAGGAGGCCCACG,0.466

# Series 2
# Target: Sal-like protein 4, full length isoform B (SALL4, Homo sapiens, UniProt Q9UJQ4-2, residues 1-616)
# Technique: universal PBM
# Form: double-stranded DNA, one strand shown
# Sample: in vitro
# Tested at: not given
# Setting: 8-mer, flanks averaged, mean of replicates
# Reading: higher = stronger binding
Oligonucleotide,E-score
GTTTCCAA,0.0596
CTGACTAC,-0.0263
AATCTCGG,-0.119
ACCAAGCG,-0.272
TAAGAGCA,0.0124
GAACTTCA,0.0314
AATGTTTG,0.185
GAGGGGGC,-0.286
ACCGTGAT,0.0808
ACCGCTCC,-0.279
AAGTTAAT,0.295
CTCCAGGC,-0.25
ATCGCCAC,-0.0126
GCGCCGCA,-0.343
ATAGTCGC,0.0569
CATCTGGG,-0.143
GCCCCCTA,-0.106
AAGTCCAG,0.0956
CGCTCAGC,-0.247
CCACTATA,0.201

# Series 3
# Target: Histone acetyltransferase KAT6A, winged helix 1, GST fusion (KAT6A, Homo sapiens, UniProt Q92794, residues 1-85)
# Technique: protein binding microarray
# Form: double-stranded DNA, one strand shown
# Sample: in vitro
# Tested at: not given
# Setting: 8-mer, flanks averaged, mean of 2 arrays, mostly near background
# Relative to: not given
# Reading: higher = stronger binding
# Residues (chain): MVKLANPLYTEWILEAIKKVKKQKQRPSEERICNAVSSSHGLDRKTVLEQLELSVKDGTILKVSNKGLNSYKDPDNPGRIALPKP
Oligonucleotide,E-score
CATTAGCC,0.000915
GTATGATA,-0.031
CAAGTTAC,0.016
CTCTGGTA,-0.175
GCCCTCGA,-0.151
TAGGGAGA,-0.0941
ACCCGACC,0.168
GTGACTCA,0.00941
GCGTTTCC,0.211
CTTTTATA,0.0309
ATGCCGCC,0.438
ATCTGGAA,-0.16
GCGCCACA,0.234
CGATTGAC,-0.0243
TGATATAA,-0.0963
GCGTGCAA,0.0869
AGCTGATG,0.0405

# Series 4
# Target: Interferon regulatory factor 3, full length, phosphomimetic (IRF3, Homo sapiens, UniProt Q14653, residues 1-427, S386D/S396D/S398D/S402D/T404D/S405D)
# Technique: protein-binding microarray
# Form: double-stranded DNA, one strand shown
# Sample: in vitro
# Tested at: 2540 nM top
# Setting: 60-bp whole probe
# Together with: salmon DNA 0.4 mg/ml
# Relative to: random background probes
# Reading: higher = stronger binding
# Constant ends, left off below: GCCTAGCAC … GTCTTGATTCGCTTGACGCTGCTG
# Construct (chain): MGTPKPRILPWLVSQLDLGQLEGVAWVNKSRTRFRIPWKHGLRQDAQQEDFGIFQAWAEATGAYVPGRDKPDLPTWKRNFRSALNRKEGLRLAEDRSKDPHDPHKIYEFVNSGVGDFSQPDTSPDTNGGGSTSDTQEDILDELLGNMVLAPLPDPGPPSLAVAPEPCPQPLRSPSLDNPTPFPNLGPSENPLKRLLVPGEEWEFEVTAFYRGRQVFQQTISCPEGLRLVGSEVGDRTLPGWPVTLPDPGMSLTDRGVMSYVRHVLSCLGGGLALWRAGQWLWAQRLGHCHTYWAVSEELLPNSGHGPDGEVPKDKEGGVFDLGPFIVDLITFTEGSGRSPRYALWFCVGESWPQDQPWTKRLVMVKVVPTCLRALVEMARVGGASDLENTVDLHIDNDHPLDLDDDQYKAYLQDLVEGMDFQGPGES
Oligonucleotide,fitted relative affinity
GACGGACTGGACTATCGGGTCGTGCTA,-0.391 z-score
TTAGACCTGGGGACTGGATTAGTGCTA,-0.799 z-score
GACGGTATAGGGACTGGGGACGTGCTA,-0.621 z-score
TCATGTCTGTTTTTGCTACTGTGCTAG,0.885 z-score
TCACCCCTCAGATCTGCCACTGTGCTA,0.158 z-score
TTGGAACTGAGACTGGATTAGTGCTAG,-0.506 z-score
TTAGGTTTAGACTTTCGGTTAGTGCTA,1.1 z-score
TTAGAACTGAGTATCGCTTAGTGCTAG,0.12 z-score
GCCGGTATCGGTATCGGGACGTGCTAG,5 z-score
TTAGATATCAGTATCGATTGGTGCTAG,1.37 z-score
TTAGGATTGCTACTGCTTTAGTGCTAG,-0.295 z-score
TCAGCTCTGTGCATAGTACTGTGCTAG,-0.0438 z-score
AGTGTTTGCCCTATTTAAAAGTGCTAG,1.2 z-score
GACGGTTTCGGTTTGGGGACGTGCTAG,8.69 z-score
TTAGAACAGGGGTTTCGATTAGTGCTA,1.57 z-score
GACGAACTGAGTACCGAGACGTGCTAG,-0.0857 z-score
GACGGACTGCTACTGATGACGTGCTAG,-0.51 z-score
TCATTTCTCTTTCATTGCACTGTGCTA,3.76 z-score
GACGATCTCAGACTAGAGACGTGCTAG,0.375 z-score
TTAGGTATCCTTTTCCTTTCGTGCTAG,8.38 z-score
TTAGGTATCGGTATCGGGTAGTGCTAG,4.58 z-score
CACGAACTGAGTCTCGAGACGTGCTAG,-0.121 z-score
TTAGGTTTCGGGTTTCGGTTTGTGCTA,6.76 z-score
TTAGATTTCAGTTCCGATAAGTGCTAG,3.66 z-score
TTAGGTATCGGTGTCGGTTAGTGCTAG,2.91 z-score

# Series 5
# Target: Ras GTPase-activating protein-binding protein 1, full length (G3BP1, Homo sapiens, UniProt Q13283)
# UniProt Q13283, sequence (whole entry, looked up): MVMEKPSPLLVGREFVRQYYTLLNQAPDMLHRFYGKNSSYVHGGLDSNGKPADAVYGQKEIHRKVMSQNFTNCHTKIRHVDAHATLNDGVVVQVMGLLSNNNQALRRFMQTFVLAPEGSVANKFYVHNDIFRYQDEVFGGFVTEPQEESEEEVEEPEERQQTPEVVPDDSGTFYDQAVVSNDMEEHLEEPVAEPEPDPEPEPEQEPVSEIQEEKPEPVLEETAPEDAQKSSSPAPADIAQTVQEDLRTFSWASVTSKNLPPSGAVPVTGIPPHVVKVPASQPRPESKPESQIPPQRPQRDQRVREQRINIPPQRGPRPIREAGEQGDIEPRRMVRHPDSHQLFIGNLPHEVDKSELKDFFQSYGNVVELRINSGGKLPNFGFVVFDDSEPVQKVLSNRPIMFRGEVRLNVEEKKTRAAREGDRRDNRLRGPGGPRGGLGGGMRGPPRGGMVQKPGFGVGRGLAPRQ
# Technique: RNA Bind-n-Seq
# Form: RNA
# Sample: in vitro
# Tested at: 200 nM
# Setting: whole 134-nt RNA, ends assumed
# Together with: 150 mM KCl
# Relative to: input library
# Reading: higher = stronger binding
# Constant ends, left off below: GGGAGUUCUACAGUCCGACGAUC … UGGAAUUCUCGGGUGUCAAGG
Oligonucleotide,log2 enrichment
AAGUCCUGUGCUACACAUCGUAUGUACCGAAUCGGGGUUUGGGUUUGGGUUUGGGGAAAGUAUUAUGUUACGCCGUUCGGAUCUGCACUU,0.466
AGUCCUGUGCUACACAUCGUAUGUACCGAAUCAAACCCCCAAAUUUAAACCCCCAAAAAAGUAUUAUGUUACGCCGUUCGGAUCUGCACU,-0.377
UCCUGUGCUACACAUCGUAUGUACCGAAUCGGGAAAAAAAGGGAAAAAAAGGGUUUGGGAAAGUAUUAUGUUACGCCGUUCGGAUCUGCA,-0.353
GCAGGAAGUAAAAACAAAUGGAAAUGCUUCGGAUAGUGGCAGGGGUGGGGGUUAAAAAGGAAAGGGUGGGAUGGGAGUGGGUAAAGAGUU,0.998
CUCAAGUCCUGUGCUACACAUCGUAUGUACCGAAUCGGAAAGGUUUUUGGAGGAAAGUAUUAUGUUACGCCGUUCGGAUCUGCACUUCCA,-0.554
CAAGUCCUGUGCUACACAUCGUAUGUACCGAAUCGGGUUUUUGGGAAAGGGAGGGAAAGUAUUAUGUUACGCCGUUCGGAUCUGCACUUC,0.601
CACAGACAACACGCACCCACACAGACACAGAGGGAAGGGGUUGGGAUGUGGACAGGGUGCACAGCAGGGCGGGGUAGGACCCCAGCCCCU,1.47
CUCAAGUCCUGUGCUACACAUCGUAUGUACCGAAUCGGUUGGGUUGGGGUUGGGAAAGUAUUAUGUUACGCCGUUCGGAUCUGCACUUCC,0.6
UUAGGUGGCUCCAGGAUGUAUUUAACGUGCCCUUGGUCAUCCAGAUGACGGAUGACGAGAAGUAUCUGUGGAAGGACCUGACCCUGGACC,-0.507
UCAAGUCCUGUGCUACACAUCGUAUGUACCGAAUCGGAAAAAGGUUUGGUUUGGAAAGUAUUAUGUUACGCCGUUCGGAUCUGCACUUCC,-1.06
UGGCCCUGGUGGCAUGCGGGGAGGAAGAGGUGGACUCAUGGAUCGUGGUGGUCCCGGUGGAAUGUUCAGAGGUGGCCGUGGUGGAGACAG,0.387
GCAGGAAGUAAAAACAAAUGGAAAUGCUUCGGAUAGUGGCAGGGGUGGGGGUUGCUAAGGAAAGGGUGGGAUGGGAGUGGGUAAAAAAUU,0.373
CACAGACAACACGCACCCACACAGACACAGAGGGAAGGGGUUGGGAUGGGGACAGGGUGCACAGCAGGGCGGGGUAGGUCCCCAGCCCCU,1.91
UGGCCCUGGUGGCAUGCGGGGAGGAAGAGGUGGCCUCAUGGAUCGUGGUGGUCCCGGUGGAAUGUUCAGAGGUGGCCGUGGUGGAGGCAG,0.346
